# Earlier results that unrelated publications cite.
# Lines come from different studies, so protocols differ. ± marks the error that the study gave. Where no end group is shown, it is not given here. [ ]: non-standard residue; d: D form.
# Gastrin-releasing peptide receptor: Gastrin-releasing peptide receptor (Rattus norvegicus, UniProt P52500)
# Genome polyprotein NS3 helicase domain: Genome polyprotein, NS3 helicase domain (Hepatitis C virus genotype 1b, UniProt Q9WMX2)
Substance,target,assay,test system,setting,IC50 [µM]
COc1ccccc1N1CCN(CC(O)c2cn(S(=O)(=O)c3cccc4ccccc34)c3ccccc23)CC1 (stereo not drawn),5-HT6 receptor,antagonist,,,0.032
Oc1ccc(/C=C/c2cc(O)cc(O)c2)cc1,alpha-glucosidase,"enzyme activity, inhibitor",,,31.1
COc1ccc(C2(CNC(=O)C(C)(Cc3c[nH]c4ccccc34)NC(=O)Nc3ccc([N+](=O)[O-])cc3)CCCCC2)nc1 (stereo not drawn),Gastrin-releasing peptide receptor,,,,0.001 ± 0.0002
[βAla]WLAYPDSVPYR (N-βAla; βAla = NCCC(=O)O),"Ephrin type-A receptor 2, ectodomain with ephrin-A5 (Mus musculus, UniProt Q03145)","EphA2-ephrin-A5 interaction, ELISA",,,0.39
Cc1ccc(Sc2cccc3[nH]c4nc(N)nc(N)c4c23)cc1,"EGFR (Homo sapiens, UniProt P00533)","kinase activity, inhibitor",,,10.4 ± 1.2
Cc1ccc(C2Nc3ccccc3-n3c(-c4ccccc4)c4c(=O)n(C)c(=O)n(C)c4c32)o1 (stereo not drawn),"CFTR (Homo sapiens, UniProt P13569)","chloride conductance, inhibitor",,,~0.09
CC(Cc1c[nH]c2ccccc12)(NC(=O)Nc1ccc([N+](=O)[O-])cc1)C(=O)NCC1(c2ccccn2)CCCCC1 (stereo not drawn),Gastrin-releasing peptide receptor,binding,,literature species comparison,1.3 ± 0.19
CC(C)=CCC/C(C)=C/COc1c2ccoc2cc2oc(=O)ccc12,"ethoxyresorufin O-dealkylase, mouse","enzyme activity, inhibitor",liver,,0.12
O=C(O)c1cccc([C@H]2CCN[C@@H]2C(=O)O)c1,AMPA receptor (rat),"binding, [3H]AMPA displacement",rat synaptosomes,,51
CCN(CC)C(=S)SSC(=S)N(CC)CC,dopamine β-hydroxylase,inhibitor,,,~1
O=C(OC[C@H]1O[C@@H](OC(=O)c2cc(O)c(O)c(OC(=O)c3cc(O)c(O)c(O)c3)c2)[C@H](OC(=O)c2cc(O)c(O)c(OC(=O)c3cc(O)c(O)c(O)c3)c2)[C@@H](OC(=O)c2cc(O)c(O)c(OC(=O)c3cc(O)c(O)c(O)c3)c2)[C@@H]1OC(=O)c1cc(O)c(O)c(OC(=O)c2cc(O)c(O)c(O)c2)c1)c1cc(O)c(O)c(OC(=O)c2cc(O)c(O)c(O)c2)c1,α-glucosidase,mixed-type inhibitor,,,1.31
O=C(O)c1cc2cc(Br)ccc2oc1=O,"Glutamate NMDA receptor; Grin1/Grin2a (Grin1/Grin2a, Rattus norvegicus, UniProt P35439+Q00959)",,,,18.6 ± 1.4
Cc1ccc2nc(-c3ccc4nc(-c5ccc(NC(=O)c6ccc(Cl)c(Cl)c6)cc5)sc4c3)sc2c1S(=O)(=O)O,Genome polyprotein NS3 helicase domain,RNA unwinding,,,3.9 ± 2
OCCN1C[C@H](O)[C@@H](O)[C@H](O)[C@H]1CO,alpha-glucosidase,"enzyme activity, inhibitor",,,2.43
CC(C)C[C@H](NC(=O)[C@@H](CC(=O)NO)Cc1ccccc1)C(=O)O,leucine aminopeptidase,inhibitor,,range reported for several peptidases,0.03 to 0.06
Nc1nc2c(ncn2[C@@H]2O[C@H](COP(=O)(O)OP(=O)(O)OP(=O)(O)O)[C@@H](O)[C@H]2O)c(=O)[nH]1,"GLUD1 (Homo sapiens, UniProt P00367)","enzyme activity, allosteric inhibitor",,reductive amination direction,0.042 ± 0.012
O=C(O)C(O)(Cc1cccnc1)P(=O)(O)O (stereo not drawn),geranylgeranyltransferase II,"enzyme activity, inhibitor",,,~600
CN1C(=O)c2cc(C(N)=O)nc3c(N)c(Cl)c(N)c1c23,"NQO2 (Homo sapiens, UniProt P16083)",inhibitor,,,0.022
C[C@@H](O)CCCCn1c(=O)c2c(ncn2C)n(C)c1=O,lysophosphatidic acid acyltransferase,inhibitor,P388,together with: lipopolysaccharide,0.6
C/C=C1\NC(=O)[C@H]2CSSCC/C=C/[C@H](CC(=O)N[C@H](C(C)C)C(=O)N2)OC(=O)[C@H](C(C)C)NC1=O,"histone deacetylase, Plasmodium falciparum","enzyme activity, inhibitor",nuclear extract,,0.0009
CCOc1c([C@H](C)n2nc(C)c3c(N)ncnc32)cc(Cl)c(F)c1[C@@H]1CNC(=O)C1,"PI3Kδ, human",inhibitor,human whole blood,,0.01
C#Cc1nc2c(N)ncnc2n1[C@@H]1O[C@H](COP(=O)(O)OP(=O)(O)OC[C@H]2O[C@@H]([n+]3cc(N=[N+]=[N-])cc(C(=O)[O-])c3)[C@H](O)[C@@H]2O)[C@@H](O)[C@H]1OP(=O)(O)O,NAADP receptor sea urchin,desensitization,sea urchin egg homogenate,,~0.1
C/C(=N\Cc1ccccc1)c1c(O)c2ccccc2oc1=O,"Myosin-7 (MYH7, Bos taurus, UniProt Q9BE39)","cardiac myosin activity, inhibitor",,,8
N#Cc1cnc2ncncc2c1,"PIM1 (Homo sapiens, UniProt P11309)","kinase activity, inhibitor",,,0.0114
OC[C@@H](O)[C@@H]1[C@H](O)[C@H](O)CN1Cc1ccccc1,human lysosomal α-mannosidase,"enzyme activity, inhibitor",,,1500
CCc1cccc(CC)c1N(COC)C(=O)CCl,"estrogen receptor, alligator",binding,adult female oviduct tissue,,27.5
NS(=O)(=O)c1ccc(-n2nc(C(F)(F)F)cc2-c2ccc(F)cc2F)cc1,COX-2 (sheep placenta),"enzyme activity, inhibitor",,,0.5
Nc1ncnc2nc[nH]c12,"Mas-related G-protein coupled receptor member A (Mrgpra, Rattus norvegicus, UniProt Q7TN49)",binding,rat,,0.018
O=C(/C=C/c1ccco1)N1CCc2ccccc21,"Nicotinic acetylcholine receptor alpha9/alpha10 (Rattus norvegicus, UniProt P43144+Q9JLB5)",inhibitor,,,39
Nc1nc(N)c2c(n1)[nH]c1cccc(Sc3ccccc3)c12,"PDGFRB (Homo sapiens, UniProt P09619)","kinase activity, inhibitor",,,2.8 ± 0.42
Cc1ccc2nc(-c3ccc4nc(-c5ccc(NC(=O)c6cccc(C(F)(F)F)c6F)cc5)sc4c3)sc2c1S(=O)(=O)O,Genome polyprotein NS3 helicase domain,RNA unwinding,,,11.9 ± 4
COC(c1ccc(Cl)cc1)(c1ccc2c(c1)c(-c1cccc(Cl)c1C)cc(=O)n2C)c1cncn1C (stereo not drawn),"Protein farnesyltransferase (Rattus norvegicus, UniProt Q02293+Q04631)",,,mammalian enzyme,> 5
O=C(c1ccc(P(=O)(O)O)cc1O)c1[nH]c(Cl)c(Cl)c1-n1c(C(=O)c2ccc(P(=O)(O)O)cc2O)cc(Cl)c1Cl,"Induced myeloid leukemia cell differentiation protein Mcl-1, with Bim (MCL1, Homo sapiens, UniProt Q07820)","inhibitor, ELISA",,,10.9 ± 3.1
NC(=S)NN=C(c1ccccc1)c1ccccc1,"Procathepsin L (CTSL, Homo sapiens, UniProt P07711)",inhibitor,,,> 10
C[C@@H]1COCCN1c1nc(-c2ccc(N)nc2)nc2c1C[C@@H]1COCCN21,Akt pSer473,"phosphorylation, inhibitor",A2058,,0.133 ± 0.016
CC(ONC(=O)c1cc(C(F)(F)F)cc(C(F)(F)F)c1)C(=O)Nc1ccc(Cl)cc1 (stereo not drawn),SRE.L luciferase reporter (Rho pathway),"reporter gene, inhibitor",,,< 1
CSCC[C@H](NC(=O)[C@@H](Cc1c[nH]c2ccccc12)NC(=O)[C@@H](Cc1c[nH]c2ccccc12)NC(=O)[C@H](Cc1ccccc1)NC(=O)[C@@H](Cc1c[nH]c2ccccc12)NC(=O)[C@H](CCC(N)=O)NC(=O)[C@H](CCC(N)=O)NC(=O)[C@H]1CCCN1)C(N)=O,Gastrin-releasing peptide receptor,,,,> 10
CCc1cc(CC)n2nc(-c3ccc(OCCF)cc3)c(CC(=O)N(CC)CC)c2n1,"Tspo (Rattus norvegicus, UniProt P16257)","binding, radioligand displacement",C6 glioma cell lysate,together with: [3H]PK 11195,0.0003
Nc1scc2c(C(=O)O)nn(-c3ccc(Cl)cc3)c(=O)c12,"Microtubule-associated protein tau, K18 fragment (244-369) (MAPT, Homo sapiens, UniProt P10636, P618L)","tau K18 fibrillization (ThT), inhibitor",,"tau 20 µM, together with: heparin",5 ± 2.15
COc1ccc2scc(CCNC(=O)CBr)c2c1,aralkylamine N-acetyltransferase human,"enzyme activity, inhibitor",,thirty minutes,0.61
COc1cc(/C=C/C(=O)CC(=O)/C=C/c2ccc(O)c(OC)c2)ccc1O,"ABCG2 (Homo sapiens, UniProt Q9UNQ0)","transport activity, inhibitor",cells overexpressing ABCG2,,1 to 2
C=C(C)[C@@H]1CC[C@]2(NCCN3CCS(=O)(=O)CC3)CC[C@]3(C)[C@H](CC[C@@H]4[C@@]5(C)CC=C(C6=CC[C@@](CF)(C(=O)O)CC6)C(C)(C)[C@@H]5CC[C@]43C)[C@@H]12,UGT1A1,"enzyme activity, inhibitor",,,3.9
Cc1ccc2nc(-c3ccc4nc(-c5ccc(NC(=O)c6ccc(N)cc6)cc5)sc4c3)sc2c1S(=O)(=O)O,Genome polyprotein NS3 helicase domain,RNA unwinding,,,7 ± 1
Nc1ncnc2c1ncn2[C@@H]1O[C@H](CSCC[C@H](N)C(=O)O)[C@@H](O)[C@H]1O,"NNMT (Homo sapiens, UniProt P40261)",inhibitor,,,75.4 ± 6.3
NC(=NCc1ccccc1)NC(=O)c1nc(Cl)c(N)nc1N,"Degenerin mec-4 (mec-4, Caenorhabditis elegans, UniProt P24612, A713T)",,,concentration not given,0.83

# A few entries again:
Substance,target,assay,test system,setting,IC50 [µM]
COc1cc(/C=C/C(=O)CC(=O)/C=C/c2ccc(O)c(OC)c2)ccc1O,"ABCG2 (Homo sapiens, UniProt Q9UNQ0)","transport activity, inhibitor",cells overexpressing ABCG2,,1 to 2
N#Cc1cnc2ncncc2c1,"PIM1 (Homo sapiens, UniProt P11309)","kinase activity, inhibitor",,,0.0114
O=C(O)c1cccc([C@H]2CCN[C@@H]2C(=O)O)c1,AMPA receptor (rat),"binding, [3H]AMPA displacement",rat synaptosomes,,51
COc1ccc2scc(CCNC(=O)CBr)c2c1,aralkylamine N-acetyltransferase human,"enzyme activity, inhibitor",,thirty minutes,0.61
